Measurements from different studies.
A part holds a random share of what one study measured. “And” joins repeats or separate records; there may be more than shown.

Block 1
Target: DNA polymerase theta, ATPase domain (POLQ, Homo sapiens, UniProt O75417)
Chain of UniProt O75417 (whole entry, unmodified, looked up): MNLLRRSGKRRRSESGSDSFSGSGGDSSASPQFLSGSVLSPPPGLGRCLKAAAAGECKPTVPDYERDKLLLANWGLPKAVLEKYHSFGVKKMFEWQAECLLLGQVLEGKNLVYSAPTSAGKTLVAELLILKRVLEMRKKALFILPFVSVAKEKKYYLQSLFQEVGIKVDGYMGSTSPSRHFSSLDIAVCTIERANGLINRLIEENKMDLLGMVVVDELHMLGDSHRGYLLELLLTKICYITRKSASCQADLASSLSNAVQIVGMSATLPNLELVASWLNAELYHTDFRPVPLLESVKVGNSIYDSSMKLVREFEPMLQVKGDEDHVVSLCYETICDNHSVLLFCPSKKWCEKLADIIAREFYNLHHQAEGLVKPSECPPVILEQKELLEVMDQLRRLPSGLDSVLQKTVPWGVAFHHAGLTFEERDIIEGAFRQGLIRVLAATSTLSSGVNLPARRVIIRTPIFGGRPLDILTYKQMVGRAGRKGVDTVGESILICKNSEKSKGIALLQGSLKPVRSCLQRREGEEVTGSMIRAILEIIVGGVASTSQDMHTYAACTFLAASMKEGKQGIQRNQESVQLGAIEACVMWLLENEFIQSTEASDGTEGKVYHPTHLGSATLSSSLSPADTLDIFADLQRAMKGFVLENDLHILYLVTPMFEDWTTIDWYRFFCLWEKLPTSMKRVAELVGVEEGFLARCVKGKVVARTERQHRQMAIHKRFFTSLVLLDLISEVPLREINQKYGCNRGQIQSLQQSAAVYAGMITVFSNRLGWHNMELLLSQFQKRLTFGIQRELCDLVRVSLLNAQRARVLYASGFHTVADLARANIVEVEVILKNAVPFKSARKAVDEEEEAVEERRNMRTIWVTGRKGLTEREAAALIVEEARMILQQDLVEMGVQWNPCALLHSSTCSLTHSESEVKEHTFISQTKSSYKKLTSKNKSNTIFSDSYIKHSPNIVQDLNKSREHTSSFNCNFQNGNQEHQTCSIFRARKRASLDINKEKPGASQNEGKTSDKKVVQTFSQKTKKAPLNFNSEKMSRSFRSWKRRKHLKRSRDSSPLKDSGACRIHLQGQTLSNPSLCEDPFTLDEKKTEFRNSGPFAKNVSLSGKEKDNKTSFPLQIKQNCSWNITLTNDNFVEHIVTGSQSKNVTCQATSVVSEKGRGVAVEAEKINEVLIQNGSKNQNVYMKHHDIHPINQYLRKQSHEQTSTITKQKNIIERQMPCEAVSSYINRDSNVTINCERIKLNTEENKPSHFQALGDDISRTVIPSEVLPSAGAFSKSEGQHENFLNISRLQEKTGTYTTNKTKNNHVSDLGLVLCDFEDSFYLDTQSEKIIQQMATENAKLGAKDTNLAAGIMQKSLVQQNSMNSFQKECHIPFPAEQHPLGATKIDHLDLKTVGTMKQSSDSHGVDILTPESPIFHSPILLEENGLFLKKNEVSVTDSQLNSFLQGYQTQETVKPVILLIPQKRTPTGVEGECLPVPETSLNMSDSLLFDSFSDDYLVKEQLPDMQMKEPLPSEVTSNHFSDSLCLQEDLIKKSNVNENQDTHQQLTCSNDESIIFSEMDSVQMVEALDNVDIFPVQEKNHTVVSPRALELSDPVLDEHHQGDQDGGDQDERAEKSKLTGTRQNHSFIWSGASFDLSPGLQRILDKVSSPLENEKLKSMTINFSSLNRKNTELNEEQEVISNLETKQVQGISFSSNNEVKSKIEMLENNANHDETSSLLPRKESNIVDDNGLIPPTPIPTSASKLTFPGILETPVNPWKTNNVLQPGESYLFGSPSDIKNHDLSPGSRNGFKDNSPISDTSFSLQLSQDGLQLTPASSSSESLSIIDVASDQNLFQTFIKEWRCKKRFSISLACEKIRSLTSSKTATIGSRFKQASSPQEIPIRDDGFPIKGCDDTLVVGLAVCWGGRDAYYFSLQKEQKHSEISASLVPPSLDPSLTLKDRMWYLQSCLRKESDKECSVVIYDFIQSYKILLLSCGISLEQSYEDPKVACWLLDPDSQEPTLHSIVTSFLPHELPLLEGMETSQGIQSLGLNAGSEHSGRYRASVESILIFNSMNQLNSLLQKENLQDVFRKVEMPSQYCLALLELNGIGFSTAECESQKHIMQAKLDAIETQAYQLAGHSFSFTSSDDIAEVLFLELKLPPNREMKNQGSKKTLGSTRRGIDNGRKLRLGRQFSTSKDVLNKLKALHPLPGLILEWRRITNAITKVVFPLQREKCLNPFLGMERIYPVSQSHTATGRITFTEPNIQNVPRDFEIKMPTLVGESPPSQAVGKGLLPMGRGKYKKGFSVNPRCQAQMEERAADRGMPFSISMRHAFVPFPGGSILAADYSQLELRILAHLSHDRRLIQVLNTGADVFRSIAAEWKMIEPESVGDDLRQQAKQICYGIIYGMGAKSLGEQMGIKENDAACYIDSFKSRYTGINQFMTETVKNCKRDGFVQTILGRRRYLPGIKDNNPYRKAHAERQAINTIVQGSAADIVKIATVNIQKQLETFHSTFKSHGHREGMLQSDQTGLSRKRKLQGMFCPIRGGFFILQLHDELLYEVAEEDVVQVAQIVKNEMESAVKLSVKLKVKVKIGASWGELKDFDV
Read-out: enzyme activity
Mode: inhibitor
Tested at: 77 µM
Relative to: untreated
SMILES	remaining activity
[N-]=[N+]=Nc1ccc(C(=O)CSC[C@H](NC(=O)CC[C@H](N)C(=O)O)C(=O)NCC(=O)O)cc1	85.5%
NOCC(=O)O	102%
CC1CNCCN1S(=O)(=O)c1cccc2cnccc12 (stereo not shown)	99.7%
Oc1ncnc2[nH]ncc12	91.5% and 91.4%
O=[N+]([O-])c1cccc2cn[nH]c12	103%
CC(C)c1cc(-c2n[nH]c(=O)n2-c2ccc3c(ccn3C)c2)c(O)cc1O	102%
C[N+]12CCC(CC1)C(OC(=O)C(O)(c1ccccc1)c1ccccc1)C2 (stereo not shown)	97.7%
COc1ccc2c(c1)c(CC(=O)O)c(C)n2C(=O)c1ccccc1	98.1%
C=C1CC[C@H](O)C/C1=C/C=C1\CCC[C@]2(C)[C@@H]([C@H](C)CCCC(C)(C)O)CC[C@@H]12	103%
NC[C@@H]1O[C@H](O[C@H]2[C@@H](O)[C@H](O[C@@H]3[C@@H](O)[C@H](N)C[C@H](N)[C@H]3O[C@H]3O[C@H](CN)[C@@H](O)[C@H](O)[C@H]3N)O[C@@H]2CO)[C@H](N)[C@@H](O)[C@@H]1O	95.9%

Block 2
Target: D(3) dopamine receptor (DRD3, Homo sapiens, UniProt P35462)
Chain of UniProt P35462 (whole entry, looked up): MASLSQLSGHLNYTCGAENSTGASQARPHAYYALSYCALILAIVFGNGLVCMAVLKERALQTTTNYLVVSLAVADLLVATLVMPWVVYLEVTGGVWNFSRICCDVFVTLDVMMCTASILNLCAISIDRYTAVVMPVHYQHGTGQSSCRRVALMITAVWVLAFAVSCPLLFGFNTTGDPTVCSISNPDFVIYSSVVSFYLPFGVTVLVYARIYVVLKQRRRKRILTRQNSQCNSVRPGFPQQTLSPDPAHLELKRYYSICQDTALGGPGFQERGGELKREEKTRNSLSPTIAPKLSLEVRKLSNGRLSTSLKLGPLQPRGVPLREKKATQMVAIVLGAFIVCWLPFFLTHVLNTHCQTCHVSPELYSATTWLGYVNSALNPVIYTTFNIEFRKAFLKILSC
Read-out: binding
Technique: radioligand binding
Tested at: 10 µM
SMILES	inhibition
CS(=O)(=O)NCC[C@H](NC(=O)c1cncc2c1cnn2-c1ccc(F)cc1)c1ccnc(S(C)(=O)=O)c1	-13.8%
CNC(=O)c1ccc(Nc2ncc(C(F)(F)F)c(NCc3nccnc3N(C)S(C)(=O)=O)n2)cc1	11.3%
CN1CCN(C(=O)C(C)(C)c2ccc(C(=O)Nc3cn4cc(-c5ccncc5)ccc4n3)cc2)CC1	12.8%
CN1C(=O)[C@@H](N2CCc3cn(Cc4ccccc4)nc3C2=O)COc2ccccc21	-4.81%
C[C@@H]1CN(c2cc(-c3nn(C)c4ccc(OC5(C)CC5)cc34)ncn2)C[C@H](C)O1	2.71%
O=C(Nc1cccnn1)N1CCC(=Cc2cccc(Oc3ccc(C(F)(F)F)cn3)c2)CC1	4.08%
COCCc1ccc(-c2c(C)nc3c(N4CCOCC4)ccnn23)cn1	24.1%
COc1nc2ccc([C@@](O)(c3ccccc3)C3CCN(C(C)=O)CC3)cc2c(Cl)c1Cc1ccc(-n2cccn2)cc1	-2.36%
Cc1nc(C2CCN(C(=O)c3ccc(OC(F)(F)F)cc3N)CC2)c2ncc(N3CCN(C)CC3)cc2n1	-8.88%
C[C@H](NC(=O)c1cnc2n1[C@](C)(Cc1ccc(C#N)cc1)C(=O)N2c1cc(Cl)c(F)c(Cl)c1)C(=O)NC1(c2ccccn2)CC1	-3.54%
Cc1nccc(COC(=O)N2C[C@@H]3[C@@H](CNC(=O)c4ccc5[nH]nnc5c4)[C@@H]3C2)n1	1.07%
O=C(Nc1cccnn1)N1CC(CC=Cc2cncc(Oc3ccc(C(F)(F)F)cn3)n2)C1	-9.59%
CCCOc1ccc([C@H]2[C@H](C(=O)O)[C@@H](c3ccc4c(c3)OCO4)CN2CC(=O)Nc2c(CC)cccc2CC)cc1	-5.43%
COc1cccc(CNC(=O)c2nc3scc(COCc4ccc(C(=O)O)cc4)c3c(=O)[nH]2)c1	10.5%
O=C(O)c1cc(-c2ccc(C3CCNCC3)cc2)c2ccc(-c3ccc(C(F)(F)F)cc3)cc2c1	65.6%
CN(C)C(=O)Cn1cc(-c2nc([C@@](C)(c3ccc(-c4cnc(N)nc4)cc3)C3CC3)no2)cn1	-5.98%

Block 3
Structure (SMILES): CC(C)n1cnc(-c2ccc(F)cc2)c1-c1ncc(C(=O)Nc2ccc(N3CCN(C)CC3)cc2)[nH]1
Technique: phase 2a trial
Species: idiopathic pulmonary fibrosis patients
dose	notes	patients with eczema [%]
60 mg once daily	grade 4 emergent event	0
all arms pooled	grade 3 emergent event	0
30 mg once daily	grade 2 emergent event	0
30 mg once daily	grade 1 emergent event	0
all arms pooled	grade 4 emergent event	0
60 mg once daily	grade 5 emergent event	0
60 mg once daily	grade 3 emergent event	0
30 mg once daily	grade 5 emergent event	0

Block 4
Target: High affinity nerve growth factor receptor (NTRK1, Homo sapiens, UniProt P04629)
Chain of UniProt P04629 (whole entry, looked up): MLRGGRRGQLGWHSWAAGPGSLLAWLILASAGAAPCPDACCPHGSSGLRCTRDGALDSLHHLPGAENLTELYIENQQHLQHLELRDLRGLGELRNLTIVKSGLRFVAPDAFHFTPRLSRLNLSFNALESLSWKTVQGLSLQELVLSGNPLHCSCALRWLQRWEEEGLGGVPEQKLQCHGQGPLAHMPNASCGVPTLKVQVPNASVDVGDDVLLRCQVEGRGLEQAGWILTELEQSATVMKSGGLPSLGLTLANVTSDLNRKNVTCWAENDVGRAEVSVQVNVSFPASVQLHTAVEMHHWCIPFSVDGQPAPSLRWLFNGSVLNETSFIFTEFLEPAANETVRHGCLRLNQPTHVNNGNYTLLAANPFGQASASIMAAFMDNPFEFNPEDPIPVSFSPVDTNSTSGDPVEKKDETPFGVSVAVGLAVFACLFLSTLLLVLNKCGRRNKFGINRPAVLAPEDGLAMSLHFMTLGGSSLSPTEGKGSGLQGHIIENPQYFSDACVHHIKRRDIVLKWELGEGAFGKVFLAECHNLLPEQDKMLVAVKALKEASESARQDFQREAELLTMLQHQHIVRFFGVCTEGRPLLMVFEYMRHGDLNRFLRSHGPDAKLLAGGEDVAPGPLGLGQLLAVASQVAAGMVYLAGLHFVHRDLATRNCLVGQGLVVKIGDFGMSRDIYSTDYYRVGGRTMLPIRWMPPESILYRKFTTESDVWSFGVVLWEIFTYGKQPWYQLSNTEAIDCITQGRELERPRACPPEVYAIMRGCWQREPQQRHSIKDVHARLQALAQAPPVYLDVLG
Read-out: enzyme activity
Mode: inhibitor
Tested at: 0.5 µM
Relative to: control
Structure (SMILES)	remaining activity
Nc1[nH]nc2nnc(-c3c(-c4ccccc4)nn4ccccc34)cc12	101%
COc1cc2ncnc(N3CCN(C(=O)Nc4ccc(Oc5ccccc5)cc4)CC3)c2cc1OC	90.6%
Cn1cnc2cc3c(Nc4cccc(Br)c4)ncnc3cc21	90.8%
Cc1nc(Nc2ncc(C(=O)Nc3c(C)cccc3Cl)s2)cc(N2CCN(CCO)CC2)n1	97.2%
COc1cc2ncc(-c3ccccc3)nc2cc1OC	93.2%
Cn1cc(/C=C2\C(=O)Nc3ccc(S(N)(=O)=O)cc32)c2ccccc21	6.15%
O=c1cc(N2CCOCC2)oc2c1ccc1ccccc12	96.4%
COc1ccc(-c2cnc3c(-c4ccsc4)cnn3c2)cc1	93.2%
O=C(Nc1ccc(Cl)cc1)c1ccccc1NCc1ccncc1	95.5%

A few entries again (block 3):
dose	notes	patients with eczema [%]
60 mg once daily	grade 4 emergent event	0
all arms pooled	grade 3 emergent event	0
30 mg once daily	grade 2 emergent event	0
